Results from different studies.
Each line is one published result; not all experiments were run side by side. Values joined by “and” are separate records of one study, mostly repeats; a detail may differ. ± marks the error that the study gave.
TOP2A: DNA topoisomerase 2-alpha (TOP2A, Homo sapiens, UniProt P11388)
Chain of UniProt P11388 (whole entry, looked up): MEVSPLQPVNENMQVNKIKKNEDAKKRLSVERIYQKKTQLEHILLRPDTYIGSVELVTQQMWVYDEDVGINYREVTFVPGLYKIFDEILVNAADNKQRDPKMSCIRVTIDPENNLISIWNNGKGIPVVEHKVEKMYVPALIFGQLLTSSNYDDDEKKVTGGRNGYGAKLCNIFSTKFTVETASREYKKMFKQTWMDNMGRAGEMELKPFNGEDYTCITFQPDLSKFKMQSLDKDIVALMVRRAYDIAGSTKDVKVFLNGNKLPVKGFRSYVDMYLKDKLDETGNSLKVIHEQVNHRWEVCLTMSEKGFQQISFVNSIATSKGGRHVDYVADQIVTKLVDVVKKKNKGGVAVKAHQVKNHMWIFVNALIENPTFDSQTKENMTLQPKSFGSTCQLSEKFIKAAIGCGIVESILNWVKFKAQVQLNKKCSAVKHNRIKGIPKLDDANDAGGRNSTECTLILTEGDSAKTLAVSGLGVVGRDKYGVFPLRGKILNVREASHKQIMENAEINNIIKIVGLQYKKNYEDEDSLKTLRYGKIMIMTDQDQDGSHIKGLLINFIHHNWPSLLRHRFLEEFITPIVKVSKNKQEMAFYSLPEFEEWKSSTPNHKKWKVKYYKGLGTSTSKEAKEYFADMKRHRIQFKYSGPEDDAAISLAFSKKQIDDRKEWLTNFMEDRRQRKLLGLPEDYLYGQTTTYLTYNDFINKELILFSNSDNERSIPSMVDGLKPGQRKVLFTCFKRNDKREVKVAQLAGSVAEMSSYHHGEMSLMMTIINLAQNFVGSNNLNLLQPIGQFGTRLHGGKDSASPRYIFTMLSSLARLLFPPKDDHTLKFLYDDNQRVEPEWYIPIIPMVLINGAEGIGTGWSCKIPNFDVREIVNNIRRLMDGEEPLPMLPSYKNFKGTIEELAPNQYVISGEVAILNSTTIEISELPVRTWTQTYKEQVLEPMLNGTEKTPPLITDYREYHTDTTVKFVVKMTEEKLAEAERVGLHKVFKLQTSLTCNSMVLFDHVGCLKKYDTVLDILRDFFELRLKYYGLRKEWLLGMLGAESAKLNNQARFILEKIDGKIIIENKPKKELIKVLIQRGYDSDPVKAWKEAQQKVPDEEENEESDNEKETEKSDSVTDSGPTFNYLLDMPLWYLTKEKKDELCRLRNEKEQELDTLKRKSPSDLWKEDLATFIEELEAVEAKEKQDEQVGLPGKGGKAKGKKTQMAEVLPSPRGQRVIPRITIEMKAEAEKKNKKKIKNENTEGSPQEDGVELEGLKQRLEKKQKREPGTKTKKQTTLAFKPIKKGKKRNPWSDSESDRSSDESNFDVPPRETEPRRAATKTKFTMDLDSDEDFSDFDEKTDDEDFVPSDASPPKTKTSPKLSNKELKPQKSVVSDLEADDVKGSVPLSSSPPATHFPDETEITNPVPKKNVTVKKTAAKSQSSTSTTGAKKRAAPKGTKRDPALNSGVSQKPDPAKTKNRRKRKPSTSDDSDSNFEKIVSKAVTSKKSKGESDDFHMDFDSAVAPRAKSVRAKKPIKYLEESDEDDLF
T1: RNA aptamer; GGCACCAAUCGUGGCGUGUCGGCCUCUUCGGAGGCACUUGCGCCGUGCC
T2: G-quadruplex RNA, intermolecular parallel G4 (Homo sapiens); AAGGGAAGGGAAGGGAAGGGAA
T3: G-quadruplex RNA (Caenorhabditis elegans); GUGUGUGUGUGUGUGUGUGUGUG
T4: DNA junction; chain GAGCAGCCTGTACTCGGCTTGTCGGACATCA; chain TCTGATGTGGCTGC; chain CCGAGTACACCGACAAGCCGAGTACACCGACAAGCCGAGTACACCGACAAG
Chain of UniProt Q64663 (whole entry, unmodified, looked up): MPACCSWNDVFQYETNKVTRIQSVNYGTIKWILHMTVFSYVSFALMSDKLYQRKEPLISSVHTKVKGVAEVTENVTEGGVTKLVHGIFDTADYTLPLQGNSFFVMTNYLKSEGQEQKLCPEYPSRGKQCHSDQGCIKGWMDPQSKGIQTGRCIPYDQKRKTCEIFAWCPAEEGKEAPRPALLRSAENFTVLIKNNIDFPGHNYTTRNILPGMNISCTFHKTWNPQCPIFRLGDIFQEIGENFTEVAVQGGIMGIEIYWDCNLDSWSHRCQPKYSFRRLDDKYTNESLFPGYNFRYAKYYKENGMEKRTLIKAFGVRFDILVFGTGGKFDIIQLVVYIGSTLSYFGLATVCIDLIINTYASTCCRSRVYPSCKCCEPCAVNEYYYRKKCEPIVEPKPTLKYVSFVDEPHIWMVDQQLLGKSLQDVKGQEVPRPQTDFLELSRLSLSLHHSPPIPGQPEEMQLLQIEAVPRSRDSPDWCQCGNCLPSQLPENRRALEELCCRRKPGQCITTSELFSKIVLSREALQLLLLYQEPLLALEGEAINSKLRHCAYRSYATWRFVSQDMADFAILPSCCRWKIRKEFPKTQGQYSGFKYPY
Chain of UniProt Q8NFU1 (whole entry, looked up): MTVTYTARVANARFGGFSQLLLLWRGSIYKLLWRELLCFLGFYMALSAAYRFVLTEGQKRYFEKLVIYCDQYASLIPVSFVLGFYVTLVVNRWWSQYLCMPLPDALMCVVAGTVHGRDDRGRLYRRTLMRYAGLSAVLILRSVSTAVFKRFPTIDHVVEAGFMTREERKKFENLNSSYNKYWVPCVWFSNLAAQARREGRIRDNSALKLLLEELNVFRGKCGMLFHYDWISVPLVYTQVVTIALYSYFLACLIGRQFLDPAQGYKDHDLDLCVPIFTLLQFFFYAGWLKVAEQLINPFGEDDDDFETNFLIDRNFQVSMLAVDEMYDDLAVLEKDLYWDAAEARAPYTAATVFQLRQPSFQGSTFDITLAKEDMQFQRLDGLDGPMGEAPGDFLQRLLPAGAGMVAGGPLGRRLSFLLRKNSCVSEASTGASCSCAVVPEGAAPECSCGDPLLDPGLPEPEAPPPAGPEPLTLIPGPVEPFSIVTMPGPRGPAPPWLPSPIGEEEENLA
Chain of UniProt P00367 (whole entry, looked up): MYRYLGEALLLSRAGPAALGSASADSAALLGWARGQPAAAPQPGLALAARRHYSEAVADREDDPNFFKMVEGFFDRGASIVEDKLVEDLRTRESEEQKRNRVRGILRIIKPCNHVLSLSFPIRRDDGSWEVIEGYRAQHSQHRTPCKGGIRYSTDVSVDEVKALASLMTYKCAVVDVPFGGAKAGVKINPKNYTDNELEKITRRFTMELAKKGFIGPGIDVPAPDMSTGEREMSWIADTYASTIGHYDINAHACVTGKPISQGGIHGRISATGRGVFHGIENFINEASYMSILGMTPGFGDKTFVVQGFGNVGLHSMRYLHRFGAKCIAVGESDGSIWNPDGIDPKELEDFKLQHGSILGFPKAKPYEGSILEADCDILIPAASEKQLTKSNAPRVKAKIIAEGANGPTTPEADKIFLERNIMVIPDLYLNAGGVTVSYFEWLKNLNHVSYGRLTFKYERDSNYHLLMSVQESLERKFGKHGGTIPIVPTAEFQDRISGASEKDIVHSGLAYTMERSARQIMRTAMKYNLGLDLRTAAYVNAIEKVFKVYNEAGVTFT
Chain of UniProt Q16774 (whole entry, unmodified, looked up): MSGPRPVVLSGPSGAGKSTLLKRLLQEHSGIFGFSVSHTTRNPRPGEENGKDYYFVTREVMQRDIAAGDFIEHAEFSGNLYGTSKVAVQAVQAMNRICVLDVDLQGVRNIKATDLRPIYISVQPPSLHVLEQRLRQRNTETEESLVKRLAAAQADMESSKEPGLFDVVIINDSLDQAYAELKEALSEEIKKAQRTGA
Chain of UniProt P51575 (whole entry, unmodified, looked up): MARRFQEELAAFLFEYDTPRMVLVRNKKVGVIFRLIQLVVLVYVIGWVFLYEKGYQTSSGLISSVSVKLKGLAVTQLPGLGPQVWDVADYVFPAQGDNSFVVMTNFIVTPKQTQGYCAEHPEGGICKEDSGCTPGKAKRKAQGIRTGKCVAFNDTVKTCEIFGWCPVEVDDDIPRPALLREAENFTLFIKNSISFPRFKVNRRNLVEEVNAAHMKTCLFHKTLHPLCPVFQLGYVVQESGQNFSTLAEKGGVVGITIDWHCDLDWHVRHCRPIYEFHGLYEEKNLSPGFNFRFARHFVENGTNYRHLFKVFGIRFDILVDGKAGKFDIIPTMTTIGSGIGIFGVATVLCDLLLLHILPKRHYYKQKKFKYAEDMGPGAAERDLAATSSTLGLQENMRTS
Chain of UniProt Q9H8M2 (whole entry, looked up): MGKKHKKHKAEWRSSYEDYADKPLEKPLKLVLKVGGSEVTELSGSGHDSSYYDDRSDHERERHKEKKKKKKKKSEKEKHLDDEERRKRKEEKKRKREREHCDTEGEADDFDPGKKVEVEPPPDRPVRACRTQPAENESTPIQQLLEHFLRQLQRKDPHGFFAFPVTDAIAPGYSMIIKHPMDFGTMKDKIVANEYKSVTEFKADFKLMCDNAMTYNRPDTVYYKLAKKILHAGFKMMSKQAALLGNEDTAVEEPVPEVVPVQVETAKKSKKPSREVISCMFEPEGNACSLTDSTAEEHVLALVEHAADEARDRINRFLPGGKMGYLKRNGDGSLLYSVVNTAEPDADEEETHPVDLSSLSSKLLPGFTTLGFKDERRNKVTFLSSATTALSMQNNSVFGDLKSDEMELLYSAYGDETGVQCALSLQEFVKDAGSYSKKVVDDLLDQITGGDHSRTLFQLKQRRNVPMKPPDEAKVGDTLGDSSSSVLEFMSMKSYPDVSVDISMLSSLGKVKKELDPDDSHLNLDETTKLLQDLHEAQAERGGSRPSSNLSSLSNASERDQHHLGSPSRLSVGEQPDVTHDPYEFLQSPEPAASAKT
Chain of UniProt Q13422 (whole entry, looked up): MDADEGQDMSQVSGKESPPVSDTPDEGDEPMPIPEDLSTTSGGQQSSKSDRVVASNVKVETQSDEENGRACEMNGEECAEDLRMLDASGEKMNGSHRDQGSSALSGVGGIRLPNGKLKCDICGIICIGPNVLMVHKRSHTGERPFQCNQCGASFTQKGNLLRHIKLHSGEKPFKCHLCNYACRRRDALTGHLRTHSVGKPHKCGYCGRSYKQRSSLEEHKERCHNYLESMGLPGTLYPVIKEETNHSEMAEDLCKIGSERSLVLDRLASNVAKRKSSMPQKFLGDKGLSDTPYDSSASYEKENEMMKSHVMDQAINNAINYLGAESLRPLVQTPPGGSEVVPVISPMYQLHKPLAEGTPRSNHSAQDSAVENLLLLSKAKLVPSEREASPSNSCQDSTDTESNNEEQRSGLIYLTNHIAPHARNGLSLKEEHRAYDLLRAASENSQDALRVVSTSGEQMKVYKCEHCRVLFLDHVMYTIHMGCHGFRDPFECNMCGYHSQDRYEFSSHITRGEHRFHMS

O=c1cc(-c2ccc(OS(=O)(=O)[O-])cc2)oc2cc(OS(=O)(=O)[O-])cc(OCc3cccc(COc4cc(OS(=O)(=O)[O-])cc5oc(-c6ccc(OS(=O)(=O)[O-])cc6)cc(=O)c45)c3)c12.[Na+].[Na+].[Na+].[Na+] — Hill slope (Neutrophil elastase (ELANE, Homo sapiens, UniProt P08246); enzyme activity, inhibitor; together with: chromogenic substrate): 2.7
CN(CCO)c1ccc(/C=C(\C#N)c2ccc(C#N)cc2)cc1 — Kd (T1, RNA aptamer; fluorescence titration, Hill fit; apparent): 572 nM
CCNC(=O)/C=C/c1cccc(Br)c1 — remaining transport activity (Sodium-dependent neutral amino acid transporter B(0)AT1 (SLC6A19, Homo sapiens, UniProt Q695T7); inhibitor, FLIPR membrane potential; CHO-BC cells; 10 µM, unit not given; relative to: no inhibitor): 0.124
CC(=O)Nc1ccc(C(=O)Nc2ccccc2N)cc1 — viability (HBL-1; 0.5 µM, 120 h): 73.2%
O=c1nc(SCc2cc(F)cc(C(F)(F)F)c2)nc(SCc2ccc3ccccc3n2)[nH]1 — mean decatenated DNA (TOP2A; decatenation; 31.25 µM): 0.16%
[O-][S+]1CCCCS1 (centres unmarked) — SOD1 monomer fraction (Superoxide dismutase [Cu-Zn] (SOD1, Homo sapiens, UniProt P00441, G94A); LC-MS; human whole blood; 10000 µM, 1 h, 37 °C): 0%
Nc1nc2c(ncn2[C@@H]2O[C@H](COP(=O)(O)O)[C@@H](O)[C@H]2O)c(=O)[nH]1 — reaction rate (GUK1 (Homo sapiens, UniProt Q16774, Y81A); enzyme activity, NADH-coupled; 15.62 µM): -0.235 s⁻¹ and 0.792 s⁻¹ and 0.852 s⁻¹
COc1ccc(C(=O)/C=C/c2cccc(-c3cccc(-c4ccc(CNCC(C)(C)C(N)=O)c(OC)n4)c3C)c2)cc1 — degradation (Programmed cell death 1 ligand 1 (CD274, Homo sapiens, UniProt Q9NZQ7); degrader, western blot; HL-60; 1 µM): < 5%
C[C@@H]1C[C@H](Nc2ccccc2)c2cc(F)ccc2N1C(=O)c1ccnnc1 — pIC50 Z-score (Ecdysone receptor (Aedes albopictus, UniProt Q9U3Y4); ligand binding, inhibitor; intact cells; together with: [3H]ponasterone A; direction not given): -0.96
Cc1ccccc1-c1ccc([C@H]2[C@@H]3CN(Cc4ccncc4)C[C@H]2N3)cc1 — EC50 (Insulin-degrading enzyme (IDE, Homo sapiens, UniProt P14735); enzyme activity, inhibitor, fluorogenic kinetic; together with: Mca-RPPGFSAFK(Dnp)-OH substrate): 2200 nM
c1ccc(CCCCCOCCc2ccc3ccoc3c2)cc1 — Emax (ATP2A2 (Sus scrofa, UniProt P11607); ATPase Vmax increase, activator; pig microsomes; 0.1 to 50 µM; relative to: vehicle): ≤ 57%
CCC(N)C(=O)O (racemic) — thermal shift (Uncharacterized protein (Pelagibacter ubique, UniProt Q4FM26); differential scanning fluorimetry; Candidatus Pelagibacter ubique; in-house screen): 5.03 °C
CN(C)c1ccc(Nc2c3ccc(NC(=O)CCN4CCCC4)cc3nc3cc(NC(=O)CCN4CCCC4)ccc23)cc1 — binding (T2, G-quadruplex RNA, intermolecular parallel G4 (Homo sapiens); 1H NMR peak broadening): binds
O=C(COP(=O)(O)O)[C@@H](O)[C@H](O)[C@H](O)COP(=O)(O)O — thermal stability ratio (GLUD1 (Homo sapiens, UniProt P00367); thermal proteome profiling; HepG2 cell lysate; concentration not given, 57 over 37 °C; relative to: compound over control): 2.75 and 2.43 and 7.1
CSCC[C@H](NC(=O)[C@H](CCC(=O)O)NC(=O)[C@H](CCC(N)=O)NC(=O)[C@H](CO)NC(=O)CCCC[C@@H]1SC[C@@H]2NC(=O)N[C@@H]21)C(=O)N[C@H](C(=O)N[C@@H](Cc1c[nH]cn1)C(=O)N[C@@H](CC(C)C)C(=O)N[C@H](C(=O)N[C@@H](CC(N)=O)C(=O)N[C@@H](CCCCN)C(=O)N[C@@H](CCC(=O)O)C(=O)N1CCC[C@H]1C(=O)N[C@@H](CO)C(=O)N[C@@H](CCC(=O)O)C(=O)N[C@H](C(=O)N1CCC[C@H]1C(=O)N[C@@H](CC(=O)O)C(=O)N[C@@H](CCC(N)=O)C(=O)N[C@@H](CS)C(=O)N[C@@H](CCSC)C(=O)N[C@H](C(=O)N[C@@H](C)C(=O)N[C@@H](CC(=O)O)C(=O)N[C@@H](CCC(=O)O)C(=O)O)[C@@H](C)O)[C@@H](C)O)C(C)C)C(C)C — relative binding affinity (mouse Tiam2 R716A; SPR; concentration not given; relative to: wild type): ~20%
Nc1nc(N)c2nc(C(=O)NCc3ccccc3)cnc2n1 — partition index (Pteridine reductase 1 (Leishmania major, UniProt Q01782); hDHFR weight 10; relative to: LmPTR1, LmDHFR over hDHFR, 1.0 selective, 0.0 non-selective): 0.66
Nc1ncnc2c1ncn2[C@@H]1O[C@H](COP(=O)(O)OP(=O)(O)OP(=O)(O)O)[C@@H](O)[C@H]1O — normalized current (P2X purinoceptor 7 (P2rx7, Rattus norvegicus, UniProt Q64663, I214A); ion current, agonist, two-electrode voltage clamp; Xenopus laevis oocytes; 300 µM; relative to: highest concentration response): 0.933 and 0.916 and 0.921
O=c1nc(SCc2cc(F)cc(C(F)(F)F)c2)nc(SCc2cccc(C(F)(F)F)c2)[nH]1 — mean decatenated DNA (TOP2A; decatenation; 31.25 µM): 23.8%
C=CC1=C(C)C2=Cc3c(C=C)c(C)c4[n]3[Fe]([Cl])[n]3c(c(C)c(CCC(=O)O)c3=CC3=NC(=C4)C(C)=C3CCC(=O)O)=CC1=N2 — binding (T3, G-quadruplex RNA (Caenorhabditis elegans); UV-vis titration): binds
O=c1[nH]c2ccccc2s1 — EC10 (Peroxisome proliferator-activated receptor gamma (PPARG, Homo sapiens, UniProt P37231); reporter gene, agonist, β-lactamase reporter; HEK293-H cells; 24 h, nominal concentration; relative to: 10% of rosiglitazone maximum effect): 19.4 µM
CC(C)(C)NC(=O)C[C@H](NC(=O)C(=O)c1c[nH]c2ccccc12)C(=O)NCc1cccc(B(O)O)c1 — selectivity ratio (Proteasome component C5/PSMB5 (Homo sapiens, UniProt P20618+P28074); relative to: IC50 β5c over IC50 β5i): 700 fold
O=c1nc(SCc2ccc(C(F)(F)F)cc2)nc(SCc2ccc3sccc3c2)[nH]1 — decatenated DNA (TOP2A; decatenation; 15.6 µM, replicate 1): 82.6%
CCCCCCCC/C=C\CCCCCCCC(=O)NCCc1ccc(O)c(O)c1 — maximal open probability (Transient receptor potential cation channel subfamily V member 1 (Trpv1, Mus musculus, UniProt Q704Y3); ion current, agonist, whole-cell patch clamp; HEK293; relative to: 3 mM 2-APB current): 0.68 ± 0.08
COc1cc(-c2cn(C)c(=O)c3cnccc23)cc(OC)c1CN1CCN(CCCCCOc2cc(-c3scnc3C)ccc2CNC(=O)[C@@H]2C[C@@H](O)CN2C(=O)[C@@H](NC(=O)C2(F)CC2)C(C)(C)C)CC1 — Dmax (VHL/BRD9 (Homo sapiens, UniProt P40337+Q9H8M2); BRD9 degradation, degrader, HiBiT; HEK293T expressing BRD9-HiBiT; 15 h): 77%
CCC1(O)CCCN(C(=O)c2ccc(-c3ccc(F)c(NC(=O)CCl)c3)cc2)C1 (centres unmarked) — protein adduct (DNA dC->dU-editing enzyme APOBEC-3B, C-terminal domain (Homo sapiens, UniProt Q9UH17); covalent modifier, intact protein mass spectrometry, measured: adduct +25721 Da; 25 µM, 3 h, 1-fold molar excess): 51.5%
O=C(O)c1ccc(O)cc1 — current density (Bestrophin-2a (BEST2, Homo sapiens, UniProt Q8NFU1); whole-cell patch clamp; HEK293 transiently expressing channel; concentration not given, membrane potential -40 mV): -130 pA/pF and -68 pA/pF and -98.3 pA/pF and -47.6 pA/pF and -104 pA/pF and -52.4 pA/pF and -99.2 pA/pF
CC[n+]1c(-c2ccccc2)c2cc(N)ccc2c2ccc(N)cc21 — binding (T4, DNA junction; fluorescence enhancement; 20 °C, Mg2+ 12.5 mM, ethidium displacement): binds
C=CC(=O)N1CCC[C@@H](n2nc(-c3ccc(Oc4ccccc4)cc3)c3c(N)ncnc32)C1 — remaining activity (Mitogen-activated protein kinase kinase kinase kinase 3 (MAP4K3, Homo sapiens, UniProt Q8IVH8); 10 µM): 62%
COc1cc2nc(N3CCCN(C)CC3)nc(NC3CCN(Cc4ccccc4)CC3)c2cc1OC — viability (HBL-1; 1 µM, 120 h): 106%
CC1(C)CC2(C)OC(=O)NC2(C)c2ccccc21 (centres unmarked) — fold enrichment (Histone-lysine N-methyltransferase SETDB1, triple tudor domain (SETDB1, Homo sapiens, UniProt Q15047); binding, affinity selection mass spectrometry; relative to: other proteins in batch): 0.714
Nc1ncnc2c1ncn2[C@@H]1O[C@H](COP(=O)(O)CP(=O)(O)OP(=O)(O)O)[C@@H](O)[C@H]1O — calcium influx (P2X purinoceptor 1 (P2RX1, Homo sapiens, UniProt P51575, K140A); calcium influx; 3.16 µM; relative to: ionomycin response): 76.7% and 90.8% and 84.8% and 84.6%
O=c1nc(SCc2cc(F)cc(C(F)(F)F)c2)nc(SCc2csc3ccc(Cl)cc23)[nH]1 — relaxed DNA (TOP2A; DNA relaxation; 31.25 µM, replicate 1): 0%
CCC(C)(NCCc1cccc(C(F)(F)F)c1Cl)c1cccc(NC2=CC(=O)N(C3CCC(=O)NC3=O)C2=O)c1 (centres unmarked) — Dmax (Cereblon/Ikaros (Homo sapiens, UniProt Q13422+Q96SW2); protein degradation, degrader, HiBiT luminescence; Jurkat): 74%
C=CC(=O)c1ccc2ccccc2c1 — potency reduction (Protein-glutamine gamma-glutamyltransferase (TGM2, Homo sapiens, UniProt P21980); enzyme activity, inhibitor; concentration not given, together with: DTT; relative to: without DTT over with DTT): ~4000 fold
O=c1nc(SCc2cc(F)cc(C(F)(F)F)c2)nc(SCc2ccc3sccc3c2)[nH]1 — ATP hydrolysis rate (TOP2A; ATPase activity; 3.9 µM, together with: ATP 0.075 mM): 0.664 µM/min and 0.653 µM/min

For quick reference, copied from above:
CSCC[C@H](NC(=O)[C@H](CCC(=O)O)NC(=O)[C@H](CCC(N)=O)NC(=O)[C@H](CO)NC(=O)CCCC[C@@H]1SC[C@@H]2NC(=O)N[C@@H]21)C(=O)N[C@H](C(=O)N[C@@H](Cc1c[nH]cn1)C(=O)N[C@@H](CC(C)C)C(=O)N[C@H](C(=O)N[C@@H](CC(N)=O)C(=O)N[C@@H](CCCCN)C(=O)N[C@@H](CCC(=O)O)C(=O)N1CCC[C@H]1C(=O)N[C@@H](CO)C(=O)N[C@@H](CCC(=O)O)C(=O)N[C@H](C(=O)N1CCC[C@H]1C(=O)N[C@@H](CC(=O)O)C(=O)N[C@@H](CCC(N)=O)C(=O)N[C@@H](CS)C(=O)N[C@@H](CCSC)C(=O)N[C@H](C(=O)N[C@@H](C)C(=O)N[C@@H](CC(=O)O)C(=O)N[C@@H](CCC(=O)O)C(=O)O)[C@@H](C)O)[C@@H](C)O)C(C)C)C(C)C — relative binding affinity (mouse Tiam2 R716A; SPR; concentration not given; relative to: wild type): ~20%
Nc1nc(N)c2nc(C(=O)NCc3ccccc3)cnc2n1 — partition index (Pteridine reductase 1 (Leishmania major, UniProt Q01782); hDHFR weight 10; relative to: LmPTR1, LmDHFR over hDHFR, 1.0 selective, 0.0 non-selective): 0.66
Nc1ncnc2c1ncn2[C@@H]1O[C@H](COP(=O)(O)OP(=O)(O)OP(=O)(O)O)[C@@H](O)[C@H]1O — normalized current (P2X purinoceptor 7 (P2rx7, Rattus norvegicus, UniProt Q64663, I214A); ion current, agonist, two-electrode voltage clamp; Xenopus laevis oocytes; 300 µM; relative to: highest concentration response): 0.933 and 0.916 and 0.921
O=c1nc(SCc2cc(F)cc(C(F)(F)F)c2)nc(SCc2cccc(C(F)(F)F)c2)[nH]1 — mean decatenated DNA (TOP2A; decatenation; 31.25 µM): 23.8%
C=CC1=C(C)C2=Cc3c(C=C)c(C)c4[n]3[Fe]([Cl])[n]3c(c(C)c(CCC(=O)O)c3=CC3=NC(=C4)C(C)=C3CCC(=O)O)=CC1=N2 — binding (T3, G-quadruplex RNA (Caenorhabditis elegans); UV-vis titration): binds
